Experimental data collected from several papers.
Each line is one published result; not all experiments were run side by side. Numbers after ± are the reported error.

CCCC[C@H](NC(=O)CNC(=O)CNC(=O)CN1CCN(CC(=O)O)CCN(CC(=O)O)CC1)C(=O)N[C@H]1CC(=O)NCCCC[C@@H](C(N)=O)NC(=O)[C@H](Cc2c[nH]c3ccccc23)NC(=O)[C@H](CCCNC(=N)N)NC(=O)[C@@H](Cc2ccccc2)NC(=O)[C@H](Cc2c[nH]cn2)NC1=O [gallium-67 labelled] — tissue uptake (female C57 mice, B16/F1 melanoma, spleen; intravenous, 0.037 MBq, 0.5 h): 1.25 ± 0.11 %ID/g
O=C([O-])CN1CCN(CC(=O)[O-])CCN(CC(=O)NCCc2ccc3c(c2)C2C=CCC2C(c2cc4c(cc2Br)OCO4)N3)CCN(CC(=O)[O-])CC1.[111In+3] (stereo not drawn) — tissue uptake (SPECT/CT imaging; mice with Hec50 tumour xenograft, intestine; 1 h): 64.9 % ID
CN1C(=O)[C@@H](Cc2ccc(O)c(I)c2)NC(=O)CNC(=O)[C@H](Cc2ccc3ccccc3c2)NC(=O)[C@H](CCCNC(=N)N)NC(=O)[C@H]1CCCNC(=O)c1ccc(CNC(=O)CN2CCN(CC(=O)O)CCN(CC(=O)O)CCN(CC(=O)O)CC2)cc1 [lutetium-177 labelled] — tissue uptake (refers to: 177Lu radioactivity; female CB-17 SCID mice, Daudi xenograft, tumor; intravenous, 0.16 nmol per mouse, 48 h): 3.27 ± 0.41 %ID/g
CCCC[C@H](NC(=O)CNC(=O)CNC(=O)CN1CCN(CC(=O)O)CCN(CC(=O)O)CCN(CC(=O)O)CC1)C(=O)N[C@H]1CC(=O)NCCCC[C@@H](C(N)=O)NC(=O)[C@H](Cc2c[nH]c3ccccc23)NC(=O)[C@H](CCCNC(=N)N)NC(=O)[C@@H](Cc2ccccc2)NC(=O)[C@H](Cc2c[nH]cn2)NC1=O [gallium-67 labelled] — tissue uptake (female C57 mice, B16/F1 melanoma, bone; intravenous, 0.037 MBq, 0.5 h): 1.44 ± 0.63 %ID/g
CC(C)[C@H](NC(=O)[C@@H]1CCCN1C(=O)[C@H](CCCNC(=N)N)NC(=O)[C@H](CS)NC(=O)[C@H](Cc1c[nH]c2ccccc12)NC(=O)[C@H](CCCNC(=N)N)NC(=O)[C@@H](Cc1ccccc1)NC(=O)[C@H](Cc1c[nH]cn1)NC(=O)[C@H](CCC(=O)O)NC(=O)[C@H](CS)NC(=O)[C@H](CS)NC(=O)[C@@H]1CC(=O)N[C@@H](CCCNC(=N)N)C(=O)NCC(=O)N[C@@H](CC(=O)O)C(=O)N[C@H](Cc2ccc(O)cc2)C(=O)N1)C(N)=O [technetium-99m labelled] — tissue uptake (C57 mice B16/F1 melanoma female, muscle; iv, 2 h, together with: NDP-MSH 10 µg co-injected): 0.24 ± 0.03 %ID/g
O=C([O-])CN1CCN(CC(=O)[O-])CCN(CC(=O)[O-])CCN(CC(=O)[O-])CC1.[64Cu+2] — tissue uptake (healthy athymic nude mice, muscle; intravenous, 1 h): 0.09 %ID/g
N=C(N)NCCC[C@@H]1NC(=O)[C@H](CCCCNC(=O)CON=C[C@H](F)[C@@H](O)[C@H](O)[C@H](O)CO)NC(=O)[C@@H](Cc2ccc(O)cc2)NC(=O)[C@H](CC(=O)O)NC(=O)CNC1=O [fluorine-18 labelled] — tissue uptake (nude mice U-87 MG tumour, bone; intravenous, 0.5 h): 0.71 ± 0.65 %ID/g
O=C([O-])c1cccc(CN(CCN(Cc2cn(Cc3ccccc3)nn2)Cc2cccc(C(=O)[O-])n2)Cc2cn(Cc3ccccc3)nn2)n1.[64Cu+2] — tissue uptake (healthy athymic nude mice, muscle; intravenous, 24 h): 0.48 %ID/g
CCCC[C@H](NC(=O)CN1CCC(NC(=O)CN2CCN(CC(=O)O)CCN(CC(=O)O)CCN(CC(=O)O)CC2)CC1)C(=O)N[C@H]1CC(=O)NCCCC[C@@H](C(N)=O)NC(=O)[C@H](Cc2c[nH]c3ccccc23)NC(=O)[C@H](CCCNC(=N)N)NC(=O)[C@@H](Cc2ccccc2)NC(=O)[C@H](Cc2c[nH]cn2)NC1=O [gallium-68 labelled] — tissue uptake (C57BL/6J mice male B16-F10 tumour, bone; 1 h post injection, unblocked): 0.4 ± 0.1 %ID/g
O=C(NCC1OC2CCC=CCCC2O1)c1ccc(COCCOCCOCC[18F])cc1 (stereo not drawn) — tissue uptake (female BALB/c nude mice, brain; intravenous, 15 min): 2.6 ± 0.1 %ID/g
NC12CNCCNCC(NCc3ccc(CNC(=O)CCCC(=O)NCc4ccc(-c5nncnn5)cc4)cc3)(CNCCNC1)CNCCNC2.[64Cu+2] — tissue uptake (athymic nude mice, SW1222 xenograft, small intestine with contents; 12 h, pretargeting with huA33-TCO, 24 h interval): 0.35 ± 0.08 %ID/g
CCCC[C@@H]1NC(=O)[C@@H](NC(=O)[C@H](CCC(=O)O)NC(=O)CNC(=O)CN2CCN(CC(=O)O)CCN(CC(=O)O)CCN(CC(=O)O)CC2)CCCCNC(=O)C[C@@H](C(N)=O)NC(=O)[C@H](C(C)C)NC(=O)[C@@H]2CCCN2C(=O)[C@H](CCCNC(=N)N)NC(=O)CNC(=O)[C@H](Cc2c[nH]c3ccccc23)NC(=O)[C@H](CCCNC(=N)N)NC(=O)[C@@H](Cc2ccccc2)NC(=O)[C@H](Cc2c[nH]cn2)NC(=O)[C@H](CCC(=O)O)NC1=O [gallium-67 labelled] — tissue uptake (C57 mice with B16/F1 melanoma, heart; intravenous, 4 h): 0.05 ± 0.02 %ID/g

Some of these lines once more:
CC(C)[C@H](NC(=O)[C@@H]1CCCN1C(=O)[C@H](CCCNC(=N)N)NC(=O)[C@H](CS)NC(=O)[C@H](Cc1c[nH]c2ccccc12)NC(=O)[C@H](CCCNC(=N)N)NC(=O)[C@@H](Cc1ccccc1)NC(=O)[C@H](Cc1c[nH]cn1)NC(=O)[C@H](CCC(=O)O)NC(=O)[C@H](CS)NC(=O)[C@H](CS)NC(=O)[C@@H]1CC(=O)N[C@@H](CCCNC(=N)N)C(=O)NCC(=O)N[C@@H](CC(=O)O)C(=O)N[C@H](Cc2ccc(O)cc2)C(=O)N1)C(N)=O [technetium-99m labelled] — tissue uptake (C57 mice B16/F1 melanoma female, muscle; iv, 2 h, together with: NDP-MSH 10 µg co-injected): 0.24 ± 0.03 %ID/g
